Published values collected from several papers.
A part holds a random share of what one study measured.

Block 1 — technique: protein-binding microarray; form: double-stranded DNA, one strand shown; sample: in vitro; concentration: not given; direction: higher = stronger binding
Target: Protein max, full length (MAX, Homo sapiens, UniProt P61244-2, residues 1-151)
Notes: k-mer, scored over probes, only values ≥0.25
For `CCATGCCC`, the E-score was 0.325.
For `ATGTGATA`, the E-score was 0.341.
`ACCCGTGC` gave an E-score of 0.337.
`GCCGCCCC` has an E-score of 0.25.
The E-score of `AAGCCATG` is reported as 0.291.
For `CAAGCGTG`, the E-score was 0.408.
For `CATGTATC`, the E-score was 0.288.
`ATGTGCGC` gave an E-score of 0.397.

Block 2 — technique: RNA Bind-n-Seq; form: RNA; sample: in vitro; concentration: 200 nM; notes: whole 134-nt RNA, ends assumed; together with: 150 mM KCl; relative to: input library; direction: higher = stronger binding
Target: Fragile X messenger ribonucleoprotein 1, C-terminal low-complexity region (Fmr1, Mus musculus, UniProt P35922)
For `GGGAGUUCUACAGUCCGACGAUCAACACUCAAACCACCAUCAAGCUUUUCCAGGAAUGCUGUCCUCAUUCCACUGACAGAGUUGUUCUUAUUGGAGGAAAACCCGAUAGGGUUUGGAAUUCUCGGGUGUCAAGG`, the log2 enrichment was 0.0686.
`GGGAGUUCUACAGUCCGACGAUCAGUCCUGUGCUACACAUCGUAUGUACCGAAUCGGGGUUUUUUUGGGGAGGGGAGGGGAAAGUAUUAUGUUACGCCGUUCGGAUCUGCACUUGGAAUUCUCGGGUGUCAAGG` gave a log2 enrichment of 0.862.
`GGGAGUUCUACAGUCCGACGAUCCACAGACAACACGCACCCACACAGACACAGAGGGAAGGGGUUGGGAUGGGGACUGGGUGCACAGCAGGGCGGGGUAGGACCCCAGCCCCUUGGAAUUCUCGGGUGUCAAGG` gave a log2 enrichment of 1.38.
With `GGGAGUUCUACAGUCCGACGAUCCACAGACAACGCGCACCCACACAGACACAGAGGGAAGGGGUUGGGAUGGGGACAGGGUGCACAGCAGGGCGGGGUAGGACCCCAGCCCCUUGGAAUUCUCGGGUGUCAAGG` the log2 enrichment was 1.27.
With `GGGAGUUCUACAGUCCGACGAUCCAAGUCCUGUGCUACACAUCGUAUGUACCGAAUCGGUUUUGGUUUUGGUUUUGGGGAAAGUAUUAUGUUACGCCGUUCGGAUCUGCACUUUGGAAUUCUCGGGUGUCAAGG` the log2 enrichment was -0.557.
The log2 enrichment of `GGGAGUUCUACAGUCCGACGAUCUCCUGUGCUACACAUCGUAUGUACCGAAUCGGGAAAAAAGGGAAAAAAGGGGAAAAAAGGAAAGUAUUAUGUUACGCCGUUCGGAUCUGCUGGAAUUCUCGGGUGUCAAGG` is reported as -0.455.
`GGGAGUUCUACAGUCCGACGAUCCUCAAGUCCUGUGCUACACAUCGUAUGUACCGAAUCGGAAAGGGAAAGGAAAGGAAAGUAUUAUGUUACGCCGUUCGGAUCUGCACUUCCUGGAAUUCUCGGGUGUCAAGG` has a log2 enrichment of -0.606.
`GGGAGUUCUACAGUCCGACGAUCUCAAGUCCUGUGCUACACAUCGUAUGUACCGAAUCGGGGAAGGGAAGGAAGGGGAAAGUAUUAUGUUACGCCGUUCGGAUCUGCACUUCCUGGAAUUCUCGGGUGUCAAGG` gave a log2 enrichment of 0.634.

Block 3 — species: human; sample: microsomes or S9; concentration: 2 µM; time: 0.5 h
N#Cc1ccc2nc(-n3cncn3)c(-c3ccc(Cl)cc3Cl)c(C#N)c2c1 gave a remaining compound of over 100%.
Nc1ccc(C(=O)Nc2nc(-c3ccc(F)cc3F)cs2)cc1 has a remaining compound of 78%.
CCc1cc2c(Nc3ccc(OC)cc3OC)ncnc2s1 has a remaining compound of 5.3%.

Mixed results
The inhibition of O=C(NNS(=O)(=O)c1ccccc1)c1cc(-c2ccnnc2)ccc1F is reported as 19.1% (Sigma non-opioid intracellular receptor 1 (SIGMAR1, Homo sapiens, UniProt Q99720); cell-free assay; 10 µM).

A few entries again (mixed results):
The inhibition of O=C(NNS(=O)(=O)c1ccccc1)c1cc(-c2ccnnc2)ccc1F is reported as 19.1% (Sigma non-opioid intracellular receptor 1 (SIGMAR1, Homo sapiens, UniProt Q99720); cell-free assay; 10 µM).
